Published values from different studies.
Every numbered part comes from another study and shows a few of its results, in no order. Substitutions count along the parent as printed.

Block 1 — method: RNA Bind-n-Seq; form: RNA; sample: in vitro; concentration: 365 nM; relative to: no-protein control; reading: higher = stronger binding; quantity: RBNS enrichment (R)
Target: RNA binding protein fox-1 homolog 2, RRM domain, GST-SBP tag (RBFOX2, Homo sapiens, UniProt O43251-10, residues 100-194)
Setting: natural RNA segment, single round, ends assumed
Residues (chain): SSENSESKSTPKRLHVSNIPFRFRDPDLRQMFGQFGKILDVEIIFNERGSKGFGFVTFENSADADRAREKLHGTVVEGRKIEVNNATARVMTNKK
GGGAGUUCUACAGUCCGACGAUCACAUCACCAUGUUCCUUGUUAACAUUUUUCUUUUCGCAGAGAGGAAAAUAUGUUUUUGCUGCUUUAUAUAAAAGUGAUUUUUAAGUUAUUUUAAAGAUCUAGCUUCCCUAUGGAAUUCUCGGGUGCCAA: 0.521
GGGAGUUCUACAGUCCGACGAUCAGGGGCUCUCUAAGCUGCACUGUUGUGGCUUUGUCUAAAAUUUUAAUGACGUUUCUGAGAACCAUGUUCUUUUUAUACUAAAAUCUGGGGAUGGGAGGGCUCAUUUGUUGUGGAAUUCUCGGGUGCCAA: 0.648
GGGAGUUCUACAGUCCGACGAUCCCAGAAUCACCAGACACCUCCAUGGCUCCAGCUAUGGGAACAGCUGCAUUGGGGCUGCCUUUCUGUUUGGCUUAGGAACUUCUGUGCUUCUUGUGGCUCCACUCGCGAGGUGGAAUUCUCGGGUGCCAA: 0.452
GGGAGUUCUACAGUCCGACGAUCGCCCUGGCUGGCCUGGAACUCACUCUGUGGACCAGGCUGGUCUCCAACUCAGAUCCUCCUGCCUCUGCCUCCCAAGUGCUGGGAUUAAAGGUGUGAUCUACCACUGCCGGUGGAAUUCUCGGGUGCCAA: 0.296
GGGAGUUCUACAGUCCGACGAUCUACAUUUUCCUGCUGGUAAAAGGAGAAACUGAGAGGUGUCCUGCAGACCGGCUGACCACUCCUUUUGGAGACGGCAGGAGGCCUGAGCGAUCCGUACUCAGAACGUCCAGUGGAAUUCUCGGGUGCCAA: 0.238
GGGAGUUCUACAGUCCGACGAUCGCUGGAGAUCACUGGAAAGGUGUCUCAGUCACAAAACUUCUCCCUCUACUACUGGAUGAAAUGUCUGCAUUUCCACCAAAAUCUACCCAGUCACCCAGGGAAUAACAACUUGGAAUUCUCGGGUGCCAA: 0.365
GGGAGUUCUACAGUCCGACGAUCGGGCCUGCCUCUGACCUGCCGUGUCCUUUGCAGGAAGGAGGUAGGCACCUUUCUGAGCUUAUUCUAUUCCCCACCCACACCCCCAGGCAGGGUUGGAAAUGAAGGACUUUUGGAAUUCUCGGGUGCCAA: 0.284
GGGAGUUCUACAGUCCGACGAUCUGAAAGGGAGUUAAAUGAAUUCACAUGAAGGGGUCGCCUGAGUCCCGCAGUUCCCCGCUCUGUACUGUAUUUUGCCAUUUCCCGUAGUCAGGUGUUCUGCAGGGUCUCUUUGGAAUUCUCGGGUGCCAA: 0.429
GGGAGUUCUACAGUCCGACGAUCUGUGGGUUCUUGCCAAGCAUCAGAACCAGUCUCCAGGGCCUCCCGACGCCGAUCCAUAGUACUGUACAGACCCACCGCCACCCUUCUCCUCGGAAGAUGCACUGUGCUGUUGGAAUUCUCGGGUGCCAA: 0.657

Block 2 — target: CCNB1, cyclin fold, Cln2 fusion (human); method: yeast growth competition, sequencing; sample: yeast; setting: weak parent motif; relative to: not given; reading: higher = stronger binding; quantity: normalised enrichment score
Starting sequence: RBL1 docking peptide (human); GSAKRRLFGEDPP
GSAKMRLFGEDPP [R5M]: 0.664
GSAKRREFGEDPP [L7E]: -0.1
GLAKRRLFGEDPP [S2L]: 0.105
GSAKYRLFGEDPP [R5Y]: 0.352
GSTKRRLFGEDPP [A3T]: 0.714
GSAKRRLFGEAPP [D11A]: 0.447
GSAKRRLFGLDPP [E10L]: 1.05
GSACRRLFGEDPP [K4C]: 1.12
GSAKRRLFGEDWP [P12W]: 0.294
GSIKRRLFGEDPP [A3I]: 1.06
GSAKRRLFGSDPP [E10S]: 0.881
GSAKRRLFGRDPP [E10R]: 1.14
GSAKRRRFGEDPP [L7R]: 0.323
GSAKRRLFEEDPP [G9E]: 0.413
GSAKRRLFYEDPP [G9Y]: 1.42
ASAKRRLFGEDPP [G1A]: 0.503
GSPKRRLFGEDPP [A3P]: 0.482
GSAYRRLFGEDPP [K4Y]: 0.617
GSAKRFLFGEDPP [R6F]: 0.09
GSAKRRLMGEDPP [F8M]: 0.317
GSAKRRLFGESPP [D11S]: 1.29
GSAKRCLFGEDPP [R6C]: 0.0556
GSADRRLFGEDPP [K4D]: -0.27
GSAKERLFGEDPP [R5E]: -0.0218
GSAKRRLFGEDPT [P13T]: 0.702

Block 3 — method: competition protein-binding microarray; form: double-stranded DNA, one strand shown; sample: in vitro; concentration: 2 µM; with: Pho4 competitor, 0.05 µM; reading: higher = stronger binding; quantity: fluorescence intensity
Target: Centromere-binding protein 1, full length, His-tagged (CBF1, Saccharomyces cerevisiae, UniProt P17106, residues 1-351)
Chain of UniProt P17106 (whole entry, looked up): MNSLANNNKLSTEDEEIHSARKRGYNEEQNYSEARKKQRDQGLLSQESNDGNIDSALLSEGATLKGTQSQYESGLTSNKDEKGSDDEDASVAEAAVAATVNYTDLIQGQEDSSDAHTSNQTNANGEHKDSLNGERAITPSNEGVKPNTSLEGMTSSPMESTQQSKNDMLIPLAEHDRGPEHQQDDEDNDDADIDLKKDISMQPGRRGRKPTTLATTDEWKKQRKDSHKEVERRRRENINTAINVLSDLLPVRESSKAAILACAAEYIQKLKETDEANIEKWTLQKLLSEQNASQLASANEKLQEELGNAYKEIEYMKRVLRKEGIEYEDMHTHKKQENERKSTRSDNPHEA
Setting: whole 60-bp probe, lowest competitor level
TGCGCGCCCGCGACCCACGTGACGGTGATTCATTCGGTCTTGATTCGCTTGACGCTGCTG: 3980 a.u.
ATCCTCTTCTTCGTCCACGTGCCGACTTTTGTTTCTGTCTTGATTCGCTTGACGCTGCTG: 1940 a.u.
GTCTTGTCTCATTTTCACGTGGAGTTCCCCACTTCAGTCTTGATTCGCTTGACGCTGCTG: 445 a.u.
CAGGTGTGGTTCAACCAAGATTAAGAGAGTATGATAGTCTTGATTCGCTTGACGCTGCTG: 71.9 a.u.
CTCTTCTACAGTTACCACATGCAAAAGTCTTTCCTGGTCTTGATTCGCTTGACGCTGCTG: 112 a.u.
GAAACAATATAACAGCACGTGTTGGAACGGTACACAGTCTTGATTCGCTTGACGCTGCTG: 2070 a.u.
TGCGCAACAACTTTTCACGTGCTGTTATGTCTAGAAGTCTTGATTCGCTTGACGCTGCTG: 1170 a.u.
TCTCATCCATTCCGTCACGCTTTGGTTGCCGGTATTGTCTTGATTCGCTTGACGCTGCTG: 129 a.u.
CTTTCCCGATCTTGCACCGTGGGTGTAGCACATTTGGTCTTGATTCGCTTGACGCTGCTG: 63 a.u.
CGTCCTAGTGATTGCGTAGTGGGTGCCATGAGGAAGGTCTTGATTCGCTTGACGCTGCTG: 82.6 a.u.
GTCTTGTCTCATTGTAAGGTGGGTGTCCCCACTTCAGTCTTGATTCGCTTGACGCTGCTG: 85.9 a.u.
TAGCCGCTAAGGGTAGACATGACGCTGCTGTTCATCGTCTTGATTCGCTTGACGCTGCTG: 60.9 a.u.
TGCGCAACAACTTGTTTCGTGGGTGTATGTCTAGAAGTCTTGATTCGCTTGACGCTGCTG: 75.9 a.u.
GTCTTGTCTCATTTTCACGTGTCTTTCCCCACTTCAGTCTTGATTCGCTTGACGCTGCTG: 887 a.u.
GGAGCAGGACTCTGCCGCGTGTCCTTCCCGGCTCCGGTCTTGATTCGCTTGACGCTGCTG: 69.6 a.u.
AAATTACTAAGTTGGAATGTGGGTGACGCCGTATGAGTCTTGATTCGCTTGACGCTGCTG: 68.6 a.u.
GTCTTGTCTCATTTTCACGTGTTGTTCCCCACTTCAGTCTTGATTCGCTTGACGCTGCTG: 697 a.u.
CCAGGCTTAGATTTTCATGTGAAAAGATAATGTGTAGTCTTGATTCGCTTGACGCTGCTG: 90.3 a.u.
AGGTTGCCAGGGCTGCACGAGGAGTGGATTTCTGCTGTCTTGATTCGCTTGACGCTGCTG: 85.5 a.u.
AAAGCGGTAATTTGCTAGGTGGGTGCAGATATCTATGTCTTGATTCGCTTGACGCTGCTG: 81.3 a.u.
CGGGGTTAAGTTTTTCACGTGGACTGCTTGCAGCAGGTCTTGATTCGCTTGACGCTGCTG: 589 a.u.
GAGCTTCTACTAAATAACGAGCAAGCAAGGGACGCTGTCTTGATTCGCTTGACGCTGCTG: 70.7 a.u.

Block 4 — method: RNAcompete; form: RNA; sample: in vitro; concentration: 20 nM; setting: 7-mer, probes averaged, single round; relative to: mean of 7-mers; reading: higher = stronger binding; quantity: 7-mer Z-score
Target: PABPC1L2, full length, GST fusion (mouse, UniProt A0ABA7IW68)
GAGGUCC: -0.159
CCCUUUA: 0.0805
ACGCCAA: -0.159
GCUUCUU: -0.284
UCAUGUC: -0.307
CUCUGCC: -0.427
GCGGAUC: -0.0047
GCGUUGG: 0.0696
CGUCGCU: -0.512
CAAUCCA: -0.159
CCCGGUG: -0.128
ACUUGUG: -0.242
ACACCGC: -0.11
UACCCUA: -0.219
GAGCUAU: -0.148
UCCGUCA: -0.452
AGAAAAC: 3.12
CGCCUAG: -0.262
CAGCGUU: -0.179
UCGGUCC: -0.235
CGAACAC: -0.079
